Experimental data pooled from the literature.
Each line is one published result; not all experiments were run side by side. Numbers after ± are the reported error.
Organism: Plasmodium falciparum

O=C(/C=C/c1ccc(CN2CCCCC2)c(O)c1)c1ccc(F)cc1 — EC50 (parasite growth; 3D7; 72 h, blood stage): 0.08 µM
CCn1cc(-c2nc(C)no2)c(=O)c2cc(F)c(N3CCC(C)CC3)cc21 — EC50 (male gamete exflagellation, dual gamete formation; NF54): 0.56 µM
O=C(/C=C/c1ccc(O)cc1)c1ccc(F)cc1 — EC50 (parasite growth; 3D7; 72 h, blood stage): > 41.3 µM
Cc1cc(Nc2ccc(S(F)(F)(F)(F)F)cc2)n2nc(C(C)(F)F)nc2n1 — EC50 (liver-stage infection rate; human hepatocytes, NF54): 7 µg/mL
Cc1cn([C@@H]2C[C@H](O)[C@@H](CNC(=S)Nc3ccc(Cl)c(C(F)(F)F)c3)O2)c(=O)[nH]c1=O — EC50 (parasite growth, SYBR Green; 3D7; 48 h, blood stage): ~2 µM
COc1ccc(Br)cc1CN(C)C(c1ccccc1)c1nnnn1-c1ccccc1C (single isomer, unassigned; (+)) — EC50 (parasite growth, SYBR Green; 3D7; 72 h): 1.9 µM
Cc1cn([C@@H]2C[C@H](O)[C@@H](CNC(=O)Nc3ccc(Cl)cc3)O2)c(=O)[nH]c1=O — EC50 (parasite growth, SYBR Green; 3D7; 48 h, blood stage): ~2 µM
COc1cc2nccc(Oc3ccc(NC(=O)Nc4cc(C(F)(F)F)ccc4F)c(F)c3)c2cc1OC — EC50 (parasite growth, SYBR Green; 3D7; blood stage): > 5 µM
Cc1ncccc1C(c1nnnn1C1CC1)N(C1CC1)C1(c2cccc(C(F)(F)F)c2)CC1 (stereo not shown) — EC50 (parasite growth, SYBR Green; 3D7; 72 h): > 30 µM
O=C(/C=C/c1cccc(O)c1)c1ccc(Cl)cc1 — EC50 (parasite growth; 3D7; 72 h, blood stage): > 38.7 µM
Cc1cc(Nc2ccc(C(F)(F)F)nc2)n2nc(C(C)(F)F)nc2n1 — EC50 (parasite growth; laboratory strain panel; 72 h, mean over panel): 0.028 ± 0.02 µM
COC(=O)c1[nH]c(C(=O)OC)c(-c2c[nH]c3ccc(Cl)cc23)c1-c1c[nH]c2ccc(Cl)cc12 — EC50 (parasite growth, SYBR Green; 3D7; 72 h, blood stage): > 10 µM
CC1CCN(Cc2cc(/C=C/C(=O)c3ccc(Cl)cc3)ccc2O)CC1 — EC50 (parasite growth; 3D7; 72 h, blood stage): 17 µM
COc1ccc(C(F)(F)F)cc1CN(C)C(c1cccnc1)c1nnnn1-c1ccccc1C (stereo not shown) — EC50 (parasite growth, SYBR Green; Dd2; 72 h): 2.3 ± 0.4 µM
COc1cccc(OC)c1C=CC(=O)C=Cc1c(OC)cccc1OC — EC50 (parasite growth): 21 to 100 µM
O=C(/C=C/c1cccc(O)c1)c1ccc(F)cc1 — EC50 (parasite growth, pLDH; 3D7, chloroquine-sensitive; 72 h): 26.07 ± 0.03 µM

For quick reference, copied from above:
Cc1cn([C@@H]2C[C@H](O)[C@@H](CNC(=S)Nc3ccc(Cl)c(C(F)(F)F)c3)O2)c(=O)[nH]c1=O — EC50 (parasite growth, SYBR Green; 3D7; 48 h, blood stage): ~2 µM
